Earlier results as cited in several papers.

CNC(=O)c1ccc(Nc2ncc(C(F)(F)F)c(NCc3nccnc3N(C)S(C)(=O)=O)n2)cc1  Ki (ADORA2A; Cerep selectivity panel): 370 nM
CN/C(=N/CCSCc1nc[nH]c1C)NC#N  activity (Toxoplasma gondii; concentration not given): inactive
O=C(Nc1cccnn1)N1CCC(=Cc2cccc(Oc3ccc(C(F)(F)F)cn3)c2)CC1  Ki (5-HT2A receptor; Cerep binding): 1600 nM
CN1[C@@H]2CC[C@H]1C[C@@H](OC(=O)c1c[nH]c3ccccc13)C2  activity class (Toxoplasma gondii; parasite growth; concentration not given, drug repurposing screen): inactive
Cc1cc(Nc2nccc(C)n2)cc(-c2cnc([C@@]3(O)CC[C@H](C(=O)O)C(C)(C)C3)s2)c1  IC50 (SRC; kinase panel): 100 nM
Cc1ccc(S(=O)(=O)c2ncccc2[N+](=O)[O-])cc1  IC50 (thioredoxin reductase 1; enzyme activity): 750 nM
O=C(O)c1cc(-c2ccc(C3CCNCC3)cc2)c2ccc(-c3ccc(C(F)(F)F)cc3)cc2c1  IC50 (SLC6A3; radioligand binding; 10 µM): 2310 nM
CC[C@@H]1C(=O)N(C)c2cnc(Nc3ccc(C(=O)N[C@H]4CC[C@H](N5CCN(CC6CC6)CC5)CC4)cc3OC)nc2N1C(C)C  IC50 (PLK2; inhibitor): 5 nM

A few entries again:
Cc1cc(Nc2nccc(C)n2)cc(-c2cnc([C@@]3(O)CC[C@H](C(=O)O)C(C)(C)C3)s2)c1  IC50 (SRC; kinase panel): 100 nM
